Published values gathered from unrelated publications.
Protocols differ between the studies behind these lines. Numbers after ± are the reported error.
CES2: Cocaine esterase (CES2, Homo sapiens, UniProt O00748)
SNCA: Alpha-synuclein (SNCA, Homo sapiens, UniProt P37840)
EPHX2: Bifunctional epoxide hydrolase 2 (EPHX2, Homo sapiens, UniProt P34913)
F11: Coagulation factor XI (F11, Homo sapiens, UniProt P03951)

For `S=C(c1ccc(-c2cc(Cl)ccc2Cl)o1)N1CCN(CCc2cccnc2)CC1`, activity read “inactive” (NPR2 (Homo sapiens, UniProt P20594); positive allosteric modulator, cGMP HTRF; HEK293 expressing GC-B; concentration not given, added: CNP).
Under “association rate constant”, `CNc1ccccc1C(=O)O[C@H]1C[C@H](n2cnc3c(N)ncnc32)O[C@@H]1COP(=O)(O)OP(=O)(O)O` is recorded as 1.56e+06 ± 130000 M⁻¹ s⁻¹ (Unconventional myosin-Va (Gallus gallus, UniProt Q02440, D297C/G292C/I296C/S293C/V295G); stopped-flow FRET; 4 °C, added: MgCl2 2 mM).
`CCCCCCCC(=O)Nc1ccc(C)nc1OC` gave a specific activity of 110 pmol/min/µg (CES2; substrate; 50 µM, pH 8, 37 °C, enzyme purity 4%).
`CCN(CC)CCCSC(=S)N1CCN(C(=O)/C=C/c2coc3ccc(OC)cc3c2=O)CC1` gave an inactivation effect of 60.1 ± 5.9% (tomato spotted wilt virus; viral infection, half-leaf method; Nicotiana glutinosa; 500 µg/mL).
For `CCCC[C@H](C)/C=C(C)/C=C/C(=O)O`, the current density was 11.8 ± 1.2 pA/pF (TRPA1 (Homo sapiens, UniProt O75762); ion current, inhibitor, whole-cell patch clamp; HEK-293T; 5 µM, +50 mV, added: 100 µM AITC).
The inhibitory concentration of `Cn1sc(=O)n(Cc2ccccc2)c1=O` is reported as 15.6 µM (Bacteroides Pif1 helicase; helicase unwinding activity).
`CCCC[C@@H]1NC(=O)[C@@H](CC(C)C)NC(=O)[C@H](CCCCN)NC(=O)[C@@H](CO)NC(=O)[C@H](Cc2c[nH]cn2)NC(=O)[C@@H](Cc2c[nH]c3ccccc23)NC1=O`: aggregation “inactive” (SNCA; inhibitor, ThT fluorescence; substoichiometric, 37 °C, added: α-synuclein 40 µM).
`O=C(O)c1ccc(/C=C2\SC(=S)N(Cc3cccc(C(F)(F)F)c3)C2=O)cc1`: ATPase activity “no effect” (NOD2 (Homo sapiens, UniProt Q9HC29); inhibitor; 1 µM).
For `CNC(=O)c1ccccc1Oc1nc(Nc2cc(OC)c(OC)c(OC)c2)ncc1Br`, enzyme activity read “no effect” (Adenosine kinase (ADK, Homo sapiens, UniProt P55263); up to 10 µM).
For `CCN(CC)CCCSC(=S)N1CCN(C(=O)/C=C/c2coc3ccccc3c2=O)CC1`, the curative effect was 61.5 ± 3.7% (tomato spotted wilt virus; viral infection, half-leaf method; Nicotiana glutinosa; 500 µg/mL).
`S=C(Nc1cc(Cl)cc(Cl)c1)Nc1cccc2[nH]ccc12`: “maximum ThT fluorescence” 19 ± 2% (SNCA; fibril formation, ThT fluorescence kinetics; 100 µM, α-syn 2 µM, plateau phase; relative to: DMSO vehicle).
For `CCCCCCCCCCCCSc1nc2c([nH]1)c(=O)n(C)c(=S)n2C`, the remaining activity was 87% (PGR (Homo sapiens, UniProt P06401); reporter gene, antagonist, MMTV-luciferase; T47D/A1-2; 10 µM, 24 h, added: 5 nM progesterone; relative to: maximal activity).
The activation of `N=C(N)NCCC[C@H](NC(=O)[C@H](CC(=O)O)NC(=O)[C@@H]1CSCCCC(=O)NCC(=O)N[C@@H](Cc2c[nH]cn2)C(=O)N[C@H](Cc2ccccc2)C(=O)N[C@@H](CCCNC(=N)N)C(=O)N[C@H](Cc2c[nH]c3ccccc23)C(=O)N1)C(=O)N[C@@H](Cc1ccccc1)C(=O)NCC(N)=O` is reported as 65% (MC5R (Homo sapiens, UniProt P33032); cAMP accumulation, agonist; HEK293 expressing MC5R; 10 µM; relative to: MT-II).
`CC12CC3CC(C)(C1)CC(NC(=O)Nc1ccc(C(=O)N4CCN(C(=O)C5CC5)CC4)cc1)(C3)C2` — result for “lipophilic ligand efficiency”: 6.19 (EPHX2).
`O=C(Nc1ccc(C(=O)Nc2ccc(C(=O)Nc3ccc(S(=O)(=O)O)c4cc(S(=O)(=O)O)cc(S(=O)(=O)O)c34)cc2)cc1)Nc1ccc(C(=O)Nc2ccc(C(=O)Nc3ccc(S(=O)(=O)O)c4cc(S(=O)(=O)O)cc(S(=O)(=O)O)c34)cc2)cc1` gave a Hill slope of 2.3 ± 0.4 (F11; enzyme activity, inhibitor, FXIa chromogenic substrate hydrolysis; pH 7.4, 25–37 °C).
`Cc1nc(/N=N/c2cc3c(S(=O)(=O)O)cc([N+](=O)[O-])cc3cc2S(=O)(=O)O)c(COP(=O)(O)O)c(C=O)c1O` has a Hill slope of 0.9 ± 0.1 (F11; enzyme activity, inhibitor; pH 7.4, 37 °C, added: S-2366 substrate).
For `CC(C)[C@H](NC(=O)[C@H](CCCCN)NC(=O)[C@H](C)NC(=O)[C@H](CCCCN)NC(=O)CNC(=O)[C@H](CS)NC(=O)[C@@H](NC(=O)[C@H](CCCCN)NC(=O)[C@@H](N)CO)[C@@H](C)O)C(=O)N[C@H](C(=O)NCC(=O)N[C@@H](CCCNC(=N)N)C(=O)N[C@@H](Cc1c[nH]c2ccccc12)C(=O)N[C@@H](CCCCN)C(=O)O)[C@@H](C)O`, the koff was 0.02 ± 0.00135 s⁻¹ (TPM1/ACTA1, with F-actin (Oryctolagus cuniculus, UniProt P58772+P68135); binding, LSPR; F-actin-tropomyosin filament; pH 7.0).
Under “membrane dipole potential change”, `CCCCCCCCCc1nc2ccccc2c(=O)n1O` is recorded as “increased” (Staphylococcus aureus membranes; di-8-ANEPPS fluorescence ratio; 40 µM).
The Emax of `Cc1cc(C(=O)CN2C(=O)CCC2=O)c(C)n1Cc1ccccc1` is reported as 95% (S1PR2 (Homo sapiens, UniProt O95136); reporter gene, agonist).
For `CC1=C(/C=C/C(C)=C/C=C/C(C)=C/C=O)C(C)(C)CCC1`, “fast time constant of inhibition” read 119 s (CNGA1 (Bos taurus, UniProt Q00194); ion current, inhibitor, inside-out patch clamp; 400 nM, added: cGMP 2 mM).
With `Cn1c(=O)c2[nH]c(CCc3ccccc3)nc2n(C)c1=O` the remaining activity was 94% (Nr3c1 (Rattus norvegicus, UniProt P06536); reporter gene, antagonist, MMTV-luciferase; T47D/A1-2; 10 µM, 24 h, added: 5 nM dexamethasone; relative to: maximal activity).
For `CC12CC3CC(C)(C1)CC(NC(=O)Nc1ccc(C(=O)N4CCCC(C(=O)NC5CC5)C4)cc1)(C3)C2` (stereo not drawn), “lipophilic ligand efficiency” read 6.22 (EPHX2).
`CCCCCCCC(=O)Nc1ccc(N(C)C)nc1C` has a specific activity of 42 pmol/min/µg (CES2; substrate; 50 µM, pH 8, 37 °C, enzyme purity 4%).
The inhibition of `COc1cc(C(=O)NC2CCC(N3CCN(CC4CCC5(CCCC5)C4)CC3)CC2)c(F)cc1Nc1ncc2c(n1)N(C1CCCC1(F)F)CC(F)(F)C(=O)N2C` (stereo not drawn) is reported as 0.77% (KIT (Homo sapiens, UniProt P10721); cell-free assay, TR-FRET; 10 µM).
`CC1(C)CCN(Cc2ccc(C(=O)NC[C@]3(O)CCCN(c4cc(NCc5ccccc5)ncn4)C3)c(O)c2)CC1` gave a remaining activity of 80% (ROCK1 (Homo sapiens, UniProt Q13464); kinase activity, radiometric; 10 µM, added: 10 µM ATP).
The covalent modification of `C=CC(=O)N1C[C@H](C)N(c2nc(OC[C@@]34CCCN3C[C@H](F)C4)nc3c(F)c(-c4ccc(F)c5sc(N)nc45)c(C(F)(F)F)cc23)C[C@H]1C` is reported as 38% (GTPase KRas, GTP-bound (KRAS, Homo sapiens, UniProt P01116, C118S/G12C); MALDI-TOF MS; 15 min, added: GTP-loaded protein).
`CC(C)(C)CCN1C[C@@H]2[C@@H](CNC(=O)c3cc(Cl)cc(Cl)c3)[C@@H]2C1.Cl` — result for “calcium current inhibition”: “no inhibition” (CACNA1C (Oryctolagus cuniculus, UniProt P15381); whole-cell patch clamp; HEK-293T, transfected; 5 µM).
`O[C@H]1[C@H](O)[C@@H](O)[C@@H]2O[C@@H]2[C@@H]1O`: “intact protein remaining” 50% (GBA1 (Homo sapiens, UniProt P04062, R534H); 90 min, added: trypsin).
Under “inactivation rate constant”, `CCCCOP(=O)(Cc1ccccc1)O[C@@H]1O[C@H](CO)[C@@H](O)[C@H](O)[C@H]1F` (mixture of isomers) is recorded as 5.44 min⁻¹ (GBA1 (Homo sapiens, UniProt P04062); enzyme activity, irreversible inhibitor; pH 5.5, 37 °C, added: 2,4-dinitrophenyl beta-D-glucopyranoside).
`[3H]CC([3H])C(=O)NCc1cc(C(=O)NCCN2CCC(N3CCC(n4c(=O)[nH]c5ccccc54)CC3)CC2)cc(C(=O)NCCN2CCN(CCCCC3CCN(CC(=O)N4c5ccccc5NC(=O)c5ccccc54)CC3)CC2)c1` (stereo not drawn) has a kon of 5.17e+06 M⁻¹ s⁻¹ (CHRM2 (Homo sapiens, UniProt P08172); binding).

For quick reference, copied from above:
For `CCCC[C@H](C)/C=C(C)/C=C/C(=O)O`, the current density was 11.8 ± 1.2 pA/pF (TRPA1 (Homo sapiens, UniProt O75762); ion current, inhibitor, whole-cell patch clamp; HEK-293T; 5 µM, +50 mV, added: 100 µM AITC).
The inhibitory concentration of `Cn1sc(=O)n(Cc2ccccc2)c1=O` is reported as 15.6 µM (Bacteroides Pif1 helicase; helicase unwinding activity).
`CCCC[C@@H]1NC(=O)[C@@H](CC(C)C)NC(=O)[C@H](CCCCN)NC(=O)[C@@H](CO)NC(=O)[C@H](Cc2c[nH]cn2)NC(=O)[C@@H](Cc2c[nH]c3ccccc23)NC1=O`: aggregation “inactive” (SNCA; inhibitor, ThT fluorescence; substoichiometric, 37 °C, added: α-synuclein 40 µM).
`O=C(O)c1ccc(/C=C2\SC(=S)N(Cc3cccc(C(F)(F)F)c3)C2=O)cc1`: ATPase activity “no effect” (NOD2 (Homo sapiens, UniProt Q9HC29); inhibitor; 1 µM).
For `CNC(=O)c1ccccc1Oc1nc(Nc2cc(OC)c(OC)c(OC)c2)ncc1Br`, enzyme activity read “no effect” (Adenosine kinase (ADK, Homo sapiens, UniProt P55263); up to 10 µM).
